Experimental data of several laboratories.
± marks the error that the study gave.
Growth factor receptor-bound protein 10 SH2 domain: Growth factor receptor-bound protein 10, SH2 domain (Homo sapiens, UniProt Q13322)
Nuclear receptor subfamily 2 group C member 2 ligand-binding domain: Nuclear receptor subfamily 2 group C member 2, ligand-binding domain (Homo sapiens, UniProt P49116)

| SMILES | target | test | conditions | Kd |
| --- | --- | --- | --- | --- |
| CN(CC(=O)O)C(=N)NP(=O)(O)O | Creatine kinase U-type, mitochondrial (CKMT1A, Homo sapiens, UniProt P12532) | microscale thermophoresis | pH 8.5, wild type, no substrate | 474 ± 321 µM |
| CSCC[C@H](NC(=O)[C@H](CC(C)C)NC(=O)[C@H](C)NC(=O)[C@H](CCCNC(=N)N)NC(=O)[C@H](Cc1ccc(OP(=O)(O)O)cc1)NC(=O)[C@H](Cc1ccccc1)NC(=O)[C@H](CC(N)=O)NC(=O)[C@H](CO)NC(=O)[C@H](CC(=O)O)NC(=O)[C@@H](NC(=O)[C@@H]1CCCN1C(=O)[C@H](CO)NC(=O)[C@@H]1CCCN1C(=O)[C@H](CC(C)C)NC(=O)c1ccc2c(c1)C(=O)OC21c2ccc(N(C)C)cc2Oc2cc(N(C)C)ccc21)[C@@H](C)O)C(=O)N[C@@H](CC(=O)O)C(=O)N[C@@H](CCC(=O)O)C(=O)N[C@@H](CCC(=O)O)C(=O)N[C@@H](CC(=O)O)C(=O)O | Growth factor receptor-bound protein 7, SH2 domain (GRB7, Homo sapiens, UniProt Q14451) | binding |  | 0.755 µM |
| N=C(N)NOCC[C@H](N)C(=O)O | Peptidylarginine deiminase, truncated (Porphyromonas gingivalis, UniProt Q9RQJ2) | binding |  | 5600 ± 1000 µM |
| Nc1c2c(nc3sc4c(c13)CCCC4)CCCC2 | Glideosome-associated protein 50 (GAP50, Plasmodium falciparum, UniProt Q8I2X3) | binding, surface plasmon resonance | 1:1 binding model | 38.7 µM |
| O=c1c(OS(=O)(=O)O)c(-c2ccc(O)c(O)c2)oc2cc(O)cc(O)c12 | Small ribosomal subunit protein uS2 (RPSA, Homo sapiens, UniProt P08865) | binding, tryptophan fluorescence quenching |  | 0.19 ± 0.011 µM |
| CC12CCC(CC1)C(C)(C)O2 | 1,8-cineole 2-endo-monooxygenase (cinA, Citrobacter braakii, UniProt Q8VQF6, N242A) | binding |  | 12.6 ± 1.73 µM |
| CSCC[C@H](NC(=O)CNC(=O)[C@H](Cc1ccccc1)NC(=O)[C@H](CC(=O)O)NC(=O)CNC(=O)c1ccc2c(c1)C(=O)OC21c2ccc(N(C)C)cc2Oc2cc(N(C)C)ccc21)C(=O)N[C@@H](CO)C(=O)N[C@@H](CCCNC(=N)N)C(=O)N[C@@H](CC(=O)O)C(=O)N[C@H](C(=O)N[C@@H](Cc1ccc(OP(=O)(O)O)cc1)C(=O)N[C@@H](CO)C(=O)N[C@H](C(=O)N[C@@H](CC(=O)O)C(=O)N[C@@H](Cc1ccc(O)cc1)C(=O)N[C@@H](Cc1ccc(O)cc1)C(=O)N[C@@H](CCCNC(=N)N)C(=O)N[C@H](C(=O)N[C@@H](CC(=O)O)C(=O)O)C(C)C)[C@@H](C)O)C(C)C | Tyrosine-protein kinase Lyn, SH2 domain (LYN, Homo sapiens, UniProt P07948) | binding |  | 1.04 µM |
| Cc1cn([C@H]2C[C@H](O)[C@@H](COP(=O)(O)OP(=O)(O)OP(=O)(O)O)O2)c(=O)[nH]c1=O | DNA polymerase I, Klenow fragment (polA, Escherichia coli, UniProt P00582, C907S/D424A/L744C/Y766F) | nucleotide incorporation, substrate, single-turnover rapid quench | added: radiolabelled primer-template DNA | 41 ± 4 µM |
| CSCC[C@H](NC(=O)[C@H](CC(=O)O)NC(=O)c1ccc2c(c1)C(=O)OC21c2ccc(N(C)C)cc2Oc2cc(N(C)C)ccc21)C(=O)N[C@@H](CO)C(=O)N[C@@H](CCCCN)C(=O)N[C@@H](CC(=O)O)C(=O)N[C@@H](CCC(=O)O)C(=O)N[C@@H](CO)C(=O)N[C@H](C(=O)N[C@@H](CC(=O)O)C(=O)N[C@@H](Cc1ccc(OP(=O)(O)O)cc1)C(=O)N[C@H](C(=O)N1CCC[C@H]1C(=O)N[C@@H](CCSC)C(=O)N[C@@H](CC(C)C)C(=O)N[C@@H](CC(=O)O)C(=O)N[C@@H](CCSC)C(=O)N[C@@H](CCCCN)C(=O)N[C@@H](CC(=O)O)C(=O)O)C(C)C)C(C)C | Ras and Rab interactor 1, SH2 domain (RIN1, Homo sapiens, UniProt Q13671) | binding |  | 0.497 µM |
| CC(=O)c1cnc2ccc(-c3cc(Cl)c(O)c(Cl)c3)nc2c1N[C@H]1CC[C@H](CN(C)C)CC1 | Receptor-like kinase TMK4 (TMK4, Arabidopsis thaliana, UniProt Q9LK43) | binding, SPR |  | 15.3 µM |
| CC[C@H](C)[C@H](NC(=O)[C@H](Cc1ccc(OP(=O)(O)O)cc1)NC(=O)[C@H](CCC(=O)O)NC(=O)[C@@H]1CCCN1C(=O)[C@@H](NC(=O)[C@@H]1CCCN1C(=O)[C@H](CC(C)C)NC(=O)[C@H](Cc1ccccc1)NC(=O)[C@@H](NC(=O)[C@H](CC(=O)O)NC(=O)[C@H](CC(=O)O)NC(=O)c1ccc2c(c1)C(=O)OC21c2ccc(N(C)C)cc2Oc2cc(N(C)C)ccc21)[C@@H](C)O)C(C)C)C(=O)N[C@@H](CC(N)=O)C(=O)N[C@@H](CCC(N)=O)C(=O)N[C@@H](CO)C(=O)N[C@H](C(=O)N1CCC[C@H]1C(=O)N[C@@H](CCCCN)C(=O)N[C@@H](CC(=O)O)C(=O)O)C(C)C | Growth factor receptor-bound protein 10 SH2 domain | binding |  | 1.3 µM |
| CC(C)C[C@H](NC(=O)[C@H](CCC(N)=O)NC(=O)[C@H](CC(C)C)NC(=O)[C@H](CC(C)C)NC(=O)[C@H](CO)NC(=O)[C@H](Cc1c[nH]cn1)NC(=O)[C@H](CC(C)C)NC(=O)[C@H](CC(=O)O)NC(=O)[C@H](CO)NC(=O)[C@H](CCC(=O)O)NC(=O)[C@H](Cc1ccccc1)NC(=O)[C@H](C)NC(=O)[C@H](Cc1ccccc1)NC(=O)[C@H](CCC(N)=O)NC(=O)[C@H](C)N)C(=O)N[C@@H](CCCCN)C(=O)N[C@@H](CCCCN)C(=O)N[C@@H](CCCCN)C(=O)N[C@@H](CCCCNC(=O)CCCCCNC(=S)Nc1ccc2c(c1)C(=O)OC21c2ccc(O)cc2Oc2cc(O)ccc21)C(N)=O | E3 ubiquitin-protein ligase XIAP, BIR1 domain (XIAP, Homo sapiens, UniProt P98170) | fluorescence polarization | BIR domain, added: FITC-labelled peptide 20 nM | no binding |
| CC(C)C[C@H](N)C(=O)O | livJ (Escherichia coli, UniProt P0AD96, Q172C) | fluorescence titration |  | 0.5 µM |
| Cc1cc(C(C#N)c2ccc(Cl)cc2)c(Cl)cc1NC(=O)c1cc(I)cc(I)c1O (stereo not shown) | Nuclear receptor subfamily 2 group C member 2 ligand-binding domain | SPR imaging |  | 0.00325 µM |
| CN(C)c1ccc2c(-c3cc(C(=O)NCCOCCOCCCCCCCl)ccc3C(=O)[O-])c3ccc(=[N+](C)C)cc-3oc2c1 | dhaA (Rhodococcus rhodochrous, UniProt P0A3G2, H272F) |  |  | 0.32 ± 0.02 µM |
| C[C@H](N)C(=O)N[C@@H](CCCNC(=N)N)C(=O)N[C@H](C(=O)N[C@@H](CCCCN)C(=O)N[C@@H](CCC(N)=O)C(=O)N[C@H](C(=O)N[C@@H](C)C(=O)N[C@@H](CCCNC(=N)N)C(=O)N[C@@H](C)C(=O)N[C@@H](CO)C(=O)O)[C@@H](C)O)[C@@H](C)O | Transcriptional regulator ATRX (ATRX, Homo sapiens, UniProt P46100, F284Y/K251R) | binding, isothermal titration calorimetry | pH 7.5, 25.0 °C | 26.8 µM |
| CC[C@H](C)[C@@H]1NC(=O)[C@H](Cc2c[nH]c3ccccc23)NC(=O)[C@H](Cc2ccc(O)cc2)NC(=O)CSC[C@@H](C(N)=O)NC(=O)[C@H]([C@@H](C)O)NC(=O)[C@H](CO)NC(=O)[C@H](C(C)C)NC(=O)[C@H](Cc2ccc(O)cc2)NC(=O)[C@H](CCCNC(=N)N)NC(=O)[C@H](Cc2ccc(O)cc2)NC(=O)[C@H]([C@@H](C)O)NC(=O)[C@H]([C@@H](C)O)NC(=O)[C@H](Cc2c[nH]c3ccccc23)NC(=O)[C@H](CO)NC(=O)[C@H](CC(N)=O)NC(=O)[C@H](CO)NC1=O | uncharacterized protein, C-terminal tail deletion (Thermochaetoides thermophila, UniProt G0S0E6+G0S709) | binding, ITC | 25 °C, Vps26 tail removed, Chaetomium thermophilum | 1.77 ± 0.17 µM |
| COc1ccc(C(CN(C)C)C2(O)CCCCC2)cc1 (stereo not shown) | Nuclear receptor subfamily 2 group C member 2 ligand-binding domain | SPR imaging |  | 0.00799 µM |
| CC(C)C[C@H](NC(=O)[C@@H](NC(=O)[C@H](CO)NC(=O)[C@H](CO)NC(=O)[C@@H](NC(=O)[C@H](CC(=O)O)NC(=O)[C@H](CC(C)C)NC(=O)[C@@H]1CCCN1C(=O)[C@H](CO)NC(=O)c1ccc2c(c1)C(=O)OC21c2ccc(N(C)C)cc2Oc2cc(N(C)C)ccc21)[C@@H](C)O)C(C)C)C(=O)N[C@@H](Cc1ccc(OP(=O)(O)O)cc1)C(=O)N[C@H](C(=O)N[C@@H](C)C(=O)N[C@H](C(=O)N[C@@H](CCC(N)=O)C(=O)N1CCC[C@H]1C(=O)N[C@@H](CC(N)=O)C(=O)N[C@@H](CCC(=O)O)C(=O)N[C@@H](CC(=O)O)C(=O)O)C(C)C)[C@@H](C)O | Growth factor receptor-bound protein 10 SH2 domain | binding |  | 0.592 µM |

Some of these lines once more:
| SMILES | target | test | conditions | Kd |
| --- | --- | --- | --- | --- |
| CC[C@H](C)[C@@H]1NC(=O)[C@H](Cc2c[nH]c3ccccc23)NC(=O)[C@H](Cc2ccc(O)cc2)NC(=O)CSC[C@@H](C(N)=O)NC(=O)[C@H]([C@@H](C)O)NC(=O)[C@H](CO)NC(=O)[C@H](C(C)C)NC(=O)[C@H](Cc2ccc(O)cc2)NC(=O)[C@H](CCCNC(=N)N)NC(=O)[C@H](Cc2ccc(O)cc2)NC(=O)[C@H]([C@@H](C)O)NC(=O)[C@H]([C@@H](C)O)NC(=O)[C@H](Cc2c[nH]c3ccccc23)NC(=O)[C@H](CO)NC(=O)[C@H](CC(N)=O)NC(=O)[C@H](CO)NC1=O | uncharacterized protein, C-terminal tail deletion (Thermochaetoides thermophila, UniProt G0S0E6+G0S709) | binding, ITC | 25 °C, Vps26 tail removed, Chaetomium thermophilum | 1.77 ± 0.17 µM |
